Published values from different studies.
A part holds a random share of what one study measured.

Set 1 — technique: RNA Bind-n-Seq; molecule type: RNA; medium: in vitro; tested at: 20 nM; notes: 6-mer, flanks averaged, single round; together with: 150 mM KCl; baseline: input library; direction: higher = stronger binding; quantity: 6-mer enrichment (R)
Target: TAR DNA-binding protein 43, full length, His tag (TARDBP, Homo sapiens, UniProt Q13148, residues 1-414)
GUAAUC: 0.607
CCCGCU: 0.618
UGUGCC: 0.865
AGGUGC: 1.33
UGACUC: 0.6
CAAUCU: 0.568
AGAUAA: 0.657
CUAUCA: 0.545

Set 2 — technique: protein-binding microarray; molecule type: double-stranded DNA, one strand shown; medium: in vitro; tested at: not given; direction: higher = stronger binding; quantity: E-score
Target: Protein max, full length (MAX, Homo sapiens, UniProt P61244-2, residues 1-151)
Notes: k-mer, scored over probes, only values ≥0.25
CGTGCCAC: 0.388
ACGTGACA: 0.453
CATGTAAG: 0.255
ACGCGCTA: 0.273
CGAGCACA: 0.335
CAATGTGC: 0.367
ACGTTGAC: 0.294
CGTGGAAG: 0.364

Set 3 — technique: RNA Bind-n-Seq; molecule type: RNA; medium: in vitro; tested at: 200 nM; notes: whole 134-nt RNA, ends assumed; together with: 150 mM LiCl; baseline: input library; direction: higher = stronger binding; quantity: log2 enrichment; all molecules: 7-deaza-guanosine replaces G
Target: Fragile X messenger ribonucleoprotein 1, C-terminal low-complexity region (Fmr1, Mus musculus, UniProt P35922)
Constant ends, left off below: GGGAGUUCUACAGUCCGACGAUC … UGGAAUUCUCGGGUGUCAAGG
ACCAUGCAGGUGGGCAUCUUCGGGAAGUGGGGCAAGGGGGGGAUAGGGAGGGGGGUAACACUUUGGGAACAGGUGGUCCCAGGUCGUUUC: 1.38
CCUGUGCUACACAUCGUAUGUACCGAAUCGGGGAAAAAAAGGGAAAAAAAGGAAAAAAAGGAAAGUAUUAUGUUACGCCGUUCGGAUCUG: 0.109
CACAGACAACACGCACCCACACAGACACCGAGGGAAGGGGUUGGGAUGGGGACAGGGUGCACAGCAGGGCGGGGUAGGACCCCAGCCCCU: 0.857
ACCAUGAAGGUGGGCAUCUUUGGGAAGUGGGGCAAGGGGGGGAUAGGGAGGGGGGUAACACUUUGGGAACAGGUGGUCCCAGGUCGUUUC: 1.38
CCUGUGCUACACAUCGUAUGUACCGAAUCGGGGUUUGGGGAAAAAGGGGUUUUUUUGGGGAAAGUAUUAUGUUACGCCGUUCGGAUCUGC: -0.993
GUCCUGUGCUACACAUCGUAUGUACCGAAUCGGGGAAAAAGGAAAAAGGGAAAAAGGGAAAGUAUUAUGUUACGCCGUUCGGAUCUGCAC: 0.128
CCUGUGCUACACAUCGUAUGUACCGAAUCGGGGAAAAAAGGAAAAAAGGGAAAAAAGGGGAAAGUAUUAUGUUACGCCGUUCGGAUCUGC: 0.199
UCCAGUCUAGCUUUGGAGAAGCGCCAACCUGCUCACUGCCGCCGACCAGACUGCAUGUUUGGUUGUACUUGUUUGAAAAGAAAAGUUGUA: -0.835

Single results of other studies
NC1=NC(c2ccc(Cl)cc2)N2C(=N1)N=C(O)c1ccccc12 (stereo not shown)  remaining compound (human, microsomes or S9; 2 µM, 0.5 h): 95.1%

Some of these lines once more (set 1):
CCCGCU: 0.618
UGUGCC: 0.865
AGGUGC: 1.33
UGACUC: 0.6
